Assay results of several laboratories.
Each line is one published result; not all experiments were run side by side.

With `S=C(NCCCc1c[nH]cn1)NCCCN(Cc1ccc(Cl)c(Cl)c1)c1ccc(Br)cn1` the concentration was 2690 ng/mL (male C57BL/6 mouse, plasma; intraperitoneal, 30 mg/kg, 30 min).
With `CSc1cc(C)nc(SC)c1NC(=O)CN1CCN(CCSc2nc3ccccc3[nH]2)CC1` the concentration was 44 ng/g (mouse Crl:CD1 (ICR) female, cerebrum; intranasal repeated, 162 µg in 7 N HCl, 15 min, 7 days dosing).
With `Nc1scc2c(C(=O)NC3CC3)nn(-c3ccc(Cl)cc3)c(=O)c12` the concentration was over 2000 nM (female mouse, brain; intraperitoneal, 5 mg/kg, 1 h, single dose).
`N[C@@H](CC(=O)O)Cn1nnc(-c2ccc(Oc3ncc(Cl)cc3F)cc2)n1` has a concentration of 1.2 ng/mL (human, plasma; 20 mg single dose, 24 h).
`O=c1cc2n(cc1O)CCN(Cc1ccccc1)C2` has a concentration of 5450 nM (rat, plasma; oral, 100 mg/kg, 4 h, unbound).
`Cc1cc(Oc2cnc(C)nc2)cc(C(=O)Nc2ccc(F)cn2)n1` gave a concentration of 142 nM (male Sprague-Dawley rat, brain; oral, 10 mg/kg, 1 h, unbound).
`O=c1cc2n(cc1O)CCN(Cc1c(F)cccc1Cl)C2` has a concentration of 493 nM (rat, brain; oral, 100 mg/kg, 4 h, unbound).
`CCNC(=O)c1nn(-c2ccc(Cl)cc2)c(=O)c2c(N)scc12` has a concentration of over 2000 nM (female mouse, brain; intraperitoneal, 5 mg/kg, 1 h, single dose).
The concentration of `Cc1cccc(C)c1CN1CCn2cc(O)c(=O)cc2C1` is reported as 16 nM (rat, brain; oral, 100 mg/kg, 4 h, unbound).
With `Nc1nc2c(ccc3ccccc32)s1` the concentration was 500 nM (mouse, plasma; intraperitoneal, 10 mg/kg, 24 h).
`O=c1cc2n(cc1O)CCN(Cc1ccccc1Cl)C2` gave a concentration of 751 nM (rat, plasma; oral, 100 mg/kg, 4 h, unbound).
`O=c1cc(-c2ccccc2)oc2c(O)c(O)ccc12` has a concentration of 5 ng/mL (male CD-1 mouse, plasma; oral, 50 mg/kg, 8 h).
